Results from different studies.
Numbered parts are unrelated; each lists some results of a single study. Changes are numbered by the printed parent chain.

Sample 1 — method: DHFR PCA, deep sequencing; matrix: yeast; added: (+)-ABA 0.0091 µM; relative to: wild-type fitted maximum; direction: higher = stronger binding
Target: ABI1, truncated, D143A, DHFR fusion (Arabidopsis thaliana)
Notes: methotrexate growth selection, single substitutions
Starting sequence: PYL1, truncated, DHFR fusion (Arabidopsis thaliana); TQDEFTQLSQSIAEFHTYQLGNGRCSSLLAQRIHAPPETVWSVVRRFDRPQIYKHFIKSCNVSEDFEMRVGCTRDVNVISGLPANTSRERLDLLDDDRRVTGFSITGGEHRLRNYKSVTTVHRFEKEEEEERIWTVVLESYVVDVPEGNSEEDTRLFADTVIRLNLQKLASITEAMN; partner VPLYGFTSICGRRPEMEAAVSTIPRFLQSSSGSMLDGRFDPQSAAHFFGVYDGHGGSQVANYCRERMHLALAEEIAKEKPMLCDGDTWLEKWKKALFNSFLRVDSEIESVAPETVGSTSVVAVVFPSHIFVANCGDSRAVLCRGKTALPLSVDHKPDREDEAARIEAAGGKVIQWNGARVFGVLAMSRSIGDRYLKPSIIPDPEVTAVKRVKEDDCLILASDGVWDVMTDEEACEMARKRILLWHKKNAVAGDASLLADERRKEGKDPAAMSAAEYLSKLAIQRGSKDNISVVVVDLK
`L20A` — result for “relative binding score”: 42.9%.
For `D97Y`, “relative binding score” read 9.25%.
`V121Y` — result for “relative binding score”: -9.45%.
Under “relative binding score”, `V136I` is recorded as 12.1%.
`E4M` — result for “relative binding score”: 19.1%.
For `F124T`, “relative binding score” read 5.93%.
For `S42Y`, “relative binding score” read 0.929%.
`F56N`: “relative binding score” 2.66%.
For `T160C`, “relative binding score” read 2.11%.
`D48L`: “relative binding score” -4.84%.
For `R155I`, “relative binding score” read 3.06%.

Sample 2 — target: CCND1, cyclin fold, Cln2 fusion (human); method: yeast growth competition, sequencing; matrix: yeast; notes: weak parent motif; relative to: not given; direction: higher = stronger binding
Starting sequence: DBF4B docking peptide (human); LGYLYLLLTQSLW; partner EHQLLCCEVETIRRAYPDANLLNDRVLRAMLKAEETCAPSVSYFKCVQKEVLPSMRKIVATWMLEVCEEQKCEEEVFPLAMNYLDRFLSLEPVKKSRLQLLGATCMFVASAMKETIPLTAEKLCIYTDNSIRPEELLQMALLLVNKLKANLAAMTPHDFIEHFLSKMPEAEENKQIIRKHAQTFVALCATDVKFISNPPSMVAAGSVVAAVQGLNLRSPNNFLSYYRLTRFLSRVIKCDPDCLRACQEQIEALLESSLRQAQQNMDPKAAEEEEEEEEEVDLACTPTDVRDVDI
For `LGYLYLLLTQSAW [L12A]`, “normalised enrichment score” read 0.107.
`LGYLYALLTQSLW [L6A]`: “normalised enrichment score” 0.213.
`LGYLYLLLTQALW [S11A]`: “normalised enrichment score” 0.0394.
`LGALYLLLTQSLW [Y3A]` — result for “normalised enrichment score”: -0.364.
For `LGYLALLLTQSLW [Y5A]`, “normalised enrichment score” read 0.233.
For `LGYAYLLLTQSLW [L4A]`, “normalised enrichment score” read 0.641.

Sample 3 — method: protein binding microarray; molecule type: double-stranded DNA, one strand shown; matrix: in vitro; concentration: not given; relative to: not given; direction: higher = stronger binding
Target: Histone acetyltransferase KAT6A, both winged helices, GST fusion (KAT6A, Homo sapiens, UniProt Q92794, residues 1-181)
Notes: 8-mer, flanks averaged, mean of 2 arrays, mostly near background
Target sequence (chain): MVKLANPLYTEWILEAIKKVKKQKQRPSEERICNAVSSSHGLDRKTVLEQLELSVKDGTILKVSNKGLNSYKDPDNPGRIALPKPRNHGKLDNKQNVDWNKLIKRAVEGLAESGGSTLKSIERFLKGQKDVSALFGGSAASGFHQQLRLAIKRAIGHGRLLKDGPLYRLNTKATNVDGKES
For `AGGTACCC`, the E-score was -0.133.
`GACAGCTC` gave an E-score of -0.052.
For `AGGGTACG`, the E-score was -0.0349.
`AAATGTCG` gave an E-score of 4.5e-05.
With `GTAGATAA` the E-score was 0.086.
With `AAGATTCG` the E-score was -0.0796.
For `AGATTCCC`, the E-score was 0.0542.
For `GAAACCTC`, the E-score was -0.0622.
With `GCGGAACC` the E-score was 0.267.
With `AGACTAAC` the E-score was -0.0586.
`GATCGCAA` has an E-score of 0.0139.
With `ACACAAAT` the E-score was -0.0684.
`CCAAAATA` gave an E-score of -0.155.
`TGGAGGAA` has an E-score of -0.159.
`ATACTTCA` has an E-score of -0.152.
`ATGATAGG` has an E-score of -0.223.
`ATATTCCA` has an E-score of -0.198.
The E-score of `ATCTCACC` is reported as 0.0057.

Mixed results
With `PhoQ, residues 284 288 289 292 302 303 QWGLFV` the fold induction was 1.28 (PhoP, residues 12 14 15 18 19 QWHVF (Escherichia coli, UniProt P23836); Sort-seq, refers to: YFP reporter; E. coli; PhoQ-PhoP variant library, added: 10 µM Mg2+; relative to: high Mg2+ state, higher = stronger signaling).

For quick reference, copied from above (sample 1):
`V121Y` — result for “relative binding score”: -9.45%.
`D48L`: “relative binding score” -4.84%.
`L20A` — result for “relative binding score”: 42.9%.
For `R155I`, “relative binding score” read 3.06%.
